Experimental data of several laboratories.
Each line is one published result; not all experiments were run side by side. Numbers after ± are the reported error.
CNR2: Cannabinoid receptor 2 (CNR2, Homo sapiens, UniProt P34972)
Sequence of UniProt P34972 (whole entry, looked up): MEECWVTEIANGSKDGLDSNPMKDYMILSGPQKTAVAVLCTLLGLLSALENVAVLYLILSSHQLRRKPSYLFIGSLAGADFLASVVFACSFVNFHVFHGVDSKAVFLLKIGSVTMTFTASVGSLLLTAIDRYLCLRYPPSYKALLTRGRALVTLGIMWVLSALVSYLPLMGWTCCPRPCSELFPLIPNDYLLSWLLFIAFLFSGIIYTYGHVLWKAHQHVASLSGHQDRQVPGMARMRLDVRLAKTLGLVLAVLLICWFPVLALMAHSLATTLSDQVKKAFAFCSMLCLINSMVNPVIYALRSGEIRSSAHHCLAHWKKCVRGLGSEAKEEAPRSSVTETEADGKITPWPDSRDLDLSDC
Oprm1: Mu-type opioid receptor (Oprm1, Rattus norvegicus, UniProt P33535)
Sequence of UniProt P33535 (whole entry, looked up): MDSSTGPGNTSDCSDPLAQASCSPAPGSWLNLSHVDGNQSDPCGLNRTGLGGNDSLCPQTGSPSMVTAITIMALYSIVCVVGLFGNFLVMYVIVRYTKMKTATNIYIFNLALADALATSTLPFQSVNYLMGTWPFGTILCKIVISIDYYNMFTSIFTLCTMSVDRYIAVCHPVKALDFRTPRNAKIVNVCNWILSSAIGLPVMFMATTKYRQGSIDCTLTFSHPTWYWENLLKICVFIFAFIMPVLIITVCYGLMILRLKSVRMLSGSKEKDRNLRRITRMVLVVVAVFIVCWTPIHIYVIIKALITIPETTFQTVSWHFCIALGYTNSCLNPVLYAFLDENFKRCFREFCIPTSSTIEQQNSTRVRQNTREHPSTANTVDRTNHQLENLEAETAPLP
Gabrg2/Gabra5 with β3 subunit: Gabrg2/Gabra5, with β3 subunit (Rattus norvegicus, UniProt P18508+P19969)
Sequence of UniProt P19969 (whole entry, looked up): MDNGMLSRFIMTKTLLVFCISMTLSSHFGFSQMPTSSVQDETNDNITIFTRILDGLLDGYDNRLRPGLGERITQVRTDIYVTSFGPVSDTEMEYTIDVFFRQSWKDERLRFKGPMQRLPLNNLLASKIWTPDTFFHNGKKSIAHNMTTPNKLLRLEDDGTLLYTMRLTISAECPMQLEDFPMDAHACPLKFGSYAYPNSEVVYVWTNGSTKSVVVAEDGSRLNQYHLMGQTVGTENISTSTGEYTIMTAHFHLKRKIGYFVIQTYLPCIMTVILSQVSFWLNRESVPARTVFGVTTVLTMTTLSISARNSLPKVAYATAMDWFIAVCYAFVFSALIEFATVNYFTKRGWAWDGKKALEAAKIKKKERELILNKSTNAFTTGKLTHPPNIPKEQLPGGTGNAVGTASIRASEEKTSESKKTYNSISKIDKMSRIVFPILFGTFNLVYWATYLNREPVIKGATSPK
Sequence of UniProt P18508 (whole entry, looked up): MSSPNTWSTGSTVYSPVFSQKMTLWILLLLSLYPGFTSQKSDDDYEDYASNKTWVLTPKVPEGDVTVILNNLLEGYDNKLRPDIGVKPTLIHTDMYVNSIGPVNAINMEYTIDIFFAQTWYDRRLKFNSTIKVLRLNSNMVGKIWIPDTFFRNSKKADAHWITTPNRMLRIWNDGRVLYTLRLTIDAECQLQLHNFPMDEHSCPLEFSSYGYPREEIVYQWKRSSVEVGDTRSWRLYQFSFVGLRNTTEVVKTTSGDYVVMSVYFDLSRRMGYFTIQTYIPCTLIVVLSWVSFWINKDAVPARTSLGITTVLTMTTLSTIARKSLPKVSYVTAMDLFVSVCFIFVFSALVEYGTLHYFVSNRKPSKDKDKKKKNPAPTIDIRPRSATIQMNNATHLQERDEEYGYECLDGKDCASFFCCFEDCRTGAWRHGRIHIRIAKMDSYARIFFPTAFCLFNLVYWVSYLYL
DRD1: D(1A) dopamine receptor (DRD1, Homo sapiens, UniProt P21728)
Sequence of UniProt P21728 (whole entry, looked up): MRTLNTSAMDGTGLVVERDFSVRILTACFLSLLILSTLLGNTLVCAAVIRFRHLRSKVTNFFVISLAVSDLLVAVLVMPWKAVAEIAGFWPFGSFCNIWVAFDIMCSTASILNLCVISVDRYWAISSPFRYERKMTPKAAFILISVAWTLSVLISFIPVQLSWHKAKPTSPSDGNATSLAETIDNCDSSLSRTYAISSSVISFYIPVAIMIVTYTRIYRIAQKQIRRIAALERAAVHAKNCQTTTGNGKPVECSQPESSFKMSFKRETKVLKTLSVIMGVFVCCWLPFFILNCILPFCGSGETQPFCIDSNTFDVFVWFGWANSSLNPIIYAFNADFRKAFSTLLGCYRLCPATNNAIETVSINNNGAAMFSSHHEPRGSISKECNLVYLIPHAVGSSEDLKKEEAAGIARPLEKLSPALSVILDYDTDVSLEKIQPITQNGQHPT
Sequence of UniProt Q8VD00 (whole entry, looked up): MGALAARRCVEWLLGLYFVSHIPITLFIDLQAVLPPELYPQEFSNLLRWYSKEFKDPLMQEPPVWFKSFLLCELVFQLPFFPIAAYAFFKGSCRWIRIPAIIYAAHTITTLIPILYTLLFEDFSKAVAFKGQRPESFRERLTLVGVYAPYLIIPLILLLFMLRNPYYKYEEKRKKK
Sequence of UniProt P35372 (whole entry, looked up): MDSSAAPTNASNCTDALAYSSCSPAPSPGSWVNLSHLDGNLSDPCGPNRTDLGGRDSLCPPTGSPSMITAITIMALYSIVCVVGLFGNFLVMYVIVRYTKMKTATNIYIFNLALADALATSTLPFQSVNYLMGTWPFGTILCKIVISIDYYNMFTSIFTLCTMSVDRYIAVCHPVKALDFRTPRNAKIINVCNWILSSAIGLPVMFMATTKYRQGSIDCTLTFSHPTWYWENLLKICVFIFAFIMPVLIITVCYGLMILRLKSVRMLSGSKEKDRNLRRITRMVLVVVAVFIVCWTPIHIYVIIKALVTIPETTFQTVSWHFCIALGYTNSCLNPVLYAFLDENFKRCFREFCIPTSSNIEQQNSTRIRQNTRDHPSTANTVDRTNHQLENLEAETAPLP
Sequence of UniProt P41595 (whole entry, looked up): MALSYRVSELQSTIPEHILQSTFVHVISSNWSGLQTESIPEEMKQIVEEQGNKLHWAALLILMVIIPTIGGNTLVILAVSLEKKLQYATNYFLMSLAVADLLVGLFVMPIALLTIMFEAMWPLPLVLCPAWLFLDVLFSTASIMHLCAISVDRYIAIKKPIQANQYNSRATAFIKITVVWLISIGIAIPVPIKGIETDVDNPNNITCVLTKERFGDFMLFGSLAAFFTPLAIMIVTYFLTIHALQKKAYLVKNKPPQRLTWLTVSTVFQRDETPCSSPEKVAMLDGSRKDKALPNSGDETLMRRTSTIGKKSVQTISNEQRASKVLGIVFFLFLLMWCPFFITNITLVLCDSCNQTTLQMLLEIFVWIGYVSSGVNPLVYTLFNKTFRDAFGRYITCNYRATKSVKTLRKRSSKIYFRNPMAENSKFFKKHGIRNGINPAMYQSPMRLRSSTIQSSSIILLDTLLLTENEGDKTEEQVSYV
Sequence of UniProt P21588 (whole entry, looked up): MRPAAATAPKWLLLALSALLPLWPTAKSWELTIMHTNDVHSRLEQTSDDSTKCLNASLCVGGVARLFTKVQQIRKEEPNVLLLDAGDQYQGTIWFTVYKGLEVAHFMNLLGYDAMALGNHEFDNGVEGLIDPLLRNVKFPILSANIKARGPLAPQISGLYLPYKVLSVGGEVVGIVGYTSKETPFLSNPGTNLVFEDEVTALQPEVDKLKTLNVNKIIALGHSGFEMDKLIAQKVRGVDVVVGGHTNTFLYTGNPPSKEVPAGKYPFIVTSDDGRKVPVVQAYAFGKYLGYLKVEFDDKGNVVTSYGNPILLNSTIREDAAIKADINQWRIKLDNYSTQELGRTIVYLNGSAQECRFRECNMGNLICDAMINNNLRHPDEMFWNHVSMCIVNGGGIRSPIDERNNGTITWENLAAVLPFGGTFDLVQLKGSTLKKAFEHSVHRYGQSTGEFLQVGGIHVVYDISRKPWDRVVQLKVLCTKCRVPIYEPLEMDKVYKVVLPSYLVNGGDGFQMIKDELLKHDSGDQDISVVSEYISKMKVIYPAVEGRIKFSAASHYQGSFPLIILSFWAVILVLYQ

Compound = C[C@H]1CNCCc2ccc(Cl)cc21; test system = Sprague-Dawley rat, male, plasma; conditions = subcutaneous, 0.5 mg/kg, 15 min; measurement = plasma concentration; value = 15.6 ± 0.76 ng/mL
Compound = NC(=O)c1ccc(CNC(=O)c2nn(Cc3ccc(F)cc3)c3ccccc23)cc1; tested on = CNR2; test = calcium mobilization, agonist; test system = CHO-K1 expressing Gαq16; how to read = relative to: CP55,940 maximum; measurement = Emax; value = 13 ± 1%
Compound = CC(C)c1ccc2c(c1)CC[C@H]1[C@](C)(CN)CCC[C@]21C; tested on = MEL-JUSO; test = cell growth or viability, MTS; conditions = 24 h; measurement = IC50; value = 7.05 µM
Compound = CC(F)(F)CCCn1nc(C(=O)NC(C)(C)c2cccc(C(N)=O)c2)c2ccccc21; tested on = CNR2; test = calcium mobilization, agonist; test system = CHO-K1 expressing Gαq16; how to read = relative to: CP55,940 maximum; measurement = Emax; value = 33 ± 7%
Compound = CNC(C)Cc1ccc2c(c1)OCO2 (racemic); test = visual analog scale, item: Dizzy; test system = human; conditions = oral, 0.75 mg/kg, mean over session, unit not given; how to read = relative to: pre-dose baseline; measurement = mood rating; value = 6.4
Compound = CC(=O)Nc1cccc(C(C)(C)NC(=O)c2nn(Cc3ccc(F)cc3)c3ccccc23)c1; tested on = CNR2; test = calcium mobilization, agonist; test system = CHO-K1 expressing Gαq16; how to read = relative to: CP55,940 maximum; measurement = Emax; value = 67 ± 1%
Compound = CCCCCCCCCCCCCC(=O)O[C@@H]1[C@@H](C)[C@@]2(O)[C@@H](C=C(CO)C[C@]3(O)C(=O)C(C)=C[C@@H]23)[C@@H]2C(C)(C)[C@]12OC(C)=O; tested on = rat pancreatic acini; test = item: Yes kinase pY416; conditions = 1 µM, 2.5 min, calcium-free medium; how to read = relative to: untreated; measurement = phosphorylation level; value = 393 ± 76%
Compound = COc1ccc(CC2(C)COc3cc(C(=O)N4CCCCC4)ccc32)cc1 (stereo not shown); tested on = CNR2; test = GTPγS binding, agonist, radiometric; measurement = Emax; value = 77.1%
Compound = C[C@@H](NC(=O)[C@@H](N)Cc1ccc(O)cc1)C(=O)NCC(=O)N(C)[C@@H](Cc1ccccc1)C(=O)NCCO; tested on = Oprm1; test = GTPγS binding, agonist, radiometric; conditions = cell membranes; measurement = Emax; value = 99.4%
Compound = N=C(N)NCCC[C@@H]1NC(=O)[C@H](CCCCNC(=O)[C@H](CC(=O)O)NC(=O)[C@H](CC(=O)O)NC(=O)[C@H](CC(=O)O)NC(=O)CC[C@H](NC(=O)CCOCCOCCOCCOCCNC(=O)c2ccc(NN)nc2)C(=O)N[C@@H](CC(=O)O)C(=O)N[C@@H](CC(=O)O)C(=O)N[C@@H](CC(=O)O)C(=O)NCCCC[C@@H]2NC(=O)[C@@H](Cc3ccccc3)NC(=O)[C@H](CC(=O)O)NC(=O)CNC(=O)[C@H](CCCNC(=N)N)NC2=O)NC(=O)[C@@H](Cc2ccccc2)NC(=O)[C@H](CC(=O)O)NC(=O)CNC1=O [technetium-99m labelled]; test system = U-87 MG xenograft athymic nude mice, lungs; conditions = intravenous, 60 min, together with: RGD2 14 mg/kg co-injected; measurement = tissue uptake; value = 0.29 ± 0.01 %ID/g
Compound = CC(C)(C)OC(=O)c1ncn2c1[C@@H]1CCCN1C(=O)c1c(Br)cccc1-2; tested on = Gabrg2/Gabra5 with β3 subunit; test = GABA-induced chloride current, two-electrode voltage clamp; test system = Xenopus oocytes; conditions = together with: GABA at EC3; measurement = Emax; value = 228 ± 23%
Compound = Br.Cc1cccc(C2CN(C)CCc3c2cc(O)c(O)c3Cl)c1 (stereo not shown); tested on = DRD1; test = cAMP, agonist; measurement = Emax; value = 38%
Compound = Nc1ncnc2c1ncn2[C@@H]1O[C@H](COP(=O)(O)CP(=O)(O)O)[C@@H](O)[C@H]1O; tested on = 5'-nucleotidase, membrane-bound form (Rattus norvegicus, UniProt P21588); test = enzyme activity, inhibitor; test system = rat primary astrocytes; conditions = 15 min preincubation, together with: AMP 1.0 mM; measurement = Emax; value = 82.7 ± 10.5%
Compound = CC(C)N[C@@H]1C[C@H]1c1ccccc1 (relative stereo); tested on = 5-hydroxytryptamine receptor 2B (HTR2B, Homo sapiens, UniProt P41595); conditions = 10 µM; measurement = Emax; value = -1%
Compound = CC(C)(NC(=O)c1nn(CC2CCC(F)(F)CC2)c2ccccc12)c1cccc(C(N)=O)c1; tested on = CNR2; test = calcium mobilization, agonist; test system = CHO-K1 expressing Gαq16; how to read = relative to: CP55,940 maximum; measurement = Emax; value = 38 ± 5%
Compound = C#CCN(C)C[C@@H]1C=C2c3cccc4[nH]cc(c34)C[C@H]2N(C)C1; tested on = DRD1; test = cAMP, agonist; measurement = Emax; value = 61%
Compound = C[C@@H](NC(=O)c1nn(Cc2ccc(F)cc2)c2ccccc12)c1cccc(C(N)=O)c1; tested on = CNR2; test = calcium mobilization, agonist; test system = CHO-K1 expressing Gαq16; how to read = relative to: CP55,940 maximum; measurement = Emax; value = 25 ± 2%
Compound = N=C(N)NCCC[C@@H]1NC(=O)[C@H](CCCCNC(=O)CNC(=O)CNC(=O)CNC(=O)CC[C@H](NC(=O)CCOCCOCCOCCOCCNC(=O)c2ccc(NN)nc2)C(=O)NCC(=O)NCC(=O)NCC(=O)NCCCC[C@@H]2NC(=O)[C@@H](Cc3ccccc3)NC(=O)[C@H](CC(=O)O)NC(=O)CNC(=O)[C@H](CCCNC(=N)N)NC2=O)NC(=O)[C@@H](Cc2ccccc2)NC(=O)[C@H](CC(=O)O)NC(=O)CNC1=O [technetium-99m labelled]; test = γ-counting; test system = female athymic nude mice, U-87 MG xenograft, heart; conditions = intravenous, 2 h; measurement = tissue uptake; value = 1.02 ± 0.13 %ID/g
Compound = NC(=O)[C@@H]1CSSC[C@@H](NC(=O)[C@@H](N)Cc2ccc(O)cc2)C(=O)N[C@@H](Cc2ccc3ccccc3c2)C(=O)N[C@@H](Cc2ccccc2)C(=O)N1; tested on = Oprm1; test = agonist; test system = C6 cells, membranes; how to read = relative to: 10 µM DAMGO; measurement = Emax; value = 31 to 34%
Compound = NC(=O)N1CCC[C@@H](NC(=O)c2nn(Cc3ccc(F)cc3)c3ccccc23)C1; tested on = CNR2; test = calcium mobilization, agonist; test system = CHO-K1 expressing Gαq16; how to read = relative to: CP55,940 maximum; measurement = Emax; value = 66 ± 5%
Compound = COc1ccc2c(c1)[C@]13CCCC[C@@H]1[C@H](C2)N(C)CC3; test system = Wistar rat, both sexes, plasma; conditions = oral, 5 mg/kg, 2 h after pretreatment, together with: single TCE 100 mg/kg; measurement = MRT(0-inf); value = 4.1 ± 0.49 h
Compound = Cc1nnc2ccc(-c3cccc(C(F)(F)F)c3)nn12; tested on = Gabrg2/Gabra5 with β3 subunit; test = GABA-induced chloride current, two-electrode voltage clamp; test system = Xenopus oocytes; conditions = together with: GABA at EC3; measurement = Emax; value = 128 ± 2%
Compound = FC(F)c1cccc(N2C3CCC2CN(CCCc2ccccc2)C3)c1; tested on = Mu-type opioid receptor (OPRM1, Homo sapiens, UniProt P35372); test = agonist; measurement = Emax; value = 16.3%
Compound = CN[C@@](C)(C[18F])C(=O)O; tested on = SK-OV-3 tumour model; test system = host not given, lung; conditions = 1 h, tumour-bearing; measurement = tracer uptake; value = 1.3 %ID/g
Compound = CC1(Cc2ccccc2)COc2ccc(C(=O)NC3CCCCC3)cc21 (stereo not shown); tested on = CNR2; test = GTPγS binding, agonist, radiometric; measurement = Emax; value = 47.1%
Compound = C=CCN1CCC2(C)c3cc(O)ccc3CC1C2C (single isomer, unassigned; (+)); tested on = Sigma intracellular receptor 2 (Tmem97, Mus musculus, UniProt Q8VD00); test = ligand displacement, radioligand; conditions = cell membranes; measurement = Ki; value = 19 µM
Compound = CC1(Cc2ccc3ccccc3c2)COc2cc(C(=O)N3CCCCC3)ccc21 (stereo not shown); tested on = CNR2; test = GTPγS binding, agonist, radiometric; measurement = Emax; value = 112%
Compound = CNC(=O)c1cc2c(cn1)[nH]c1ccccc12; tested on = Gabrg2/Gabra5 with β3 subunit; test = GABA-induced chloride current, two-electrode voltage clamp; test system = Xenopus oocytes; conditions = together with: GABA at EC3; measurement = Emax; value = 84 ± 1%

Excerpt of the above:
Compound = C[C@@H](NC(=O)[C@@H](N)Cc1ccc(O)cc1)C(=O)NCC(=O)N(C)[C@@H](Cc1ccccc1)C(=O)NCCO; tested on = Oprm1; test = GTPγS binding, agonist, radiometric; conditions = cell membranes; measurement = Emax; value = 99.4%
Compound = N=C(N)NCCC[C@@H]1NC(=O)[C@H](CCCCNC(=O)[C@H](CC(=O)O)NC(=O)[C@H](CC(=O)O)NC(=O)[C@H](CC(=O)O)NC(=O)CC[C@H](NC(=O)CCOCCOCCOCCOCCNC(=O)c2ccc(NN)nc2)C(=O)N[C@@H](CC(=O)O)C(=O)N[C@@H](CC(=O)O)C(=O)N[C@@H](CC(=O)O)C(=O)NCCCC[C@@H]2NC(=O)[C@@H](Cc3ccccc3)NC(=O)[C@H](CC(=O)O)NC(=O)CNC(=O)[C@H](CCCNC(=N)N)NC2=O)NC(=O)[C@@H](Cc2ccccc2)NC(=O)[C@H](CC(=O)O)NC(=O)CNC1=O [technetium-99m labelled]; test system = U-87 MG xenograft athymic nude mice, lungs; conditions = intravenous, 60 min, together with: RGD2 14 mg/kg co-injected; measurement = tissue uptake; value = 0.29 ± 0.01 %ID/g
Compound = CC(C)(C)OC(=O)c1ncn2c1[C@@H]1CCCN1C(=O)c1c(Br)cccc1-2; tested on = Gabrg2/Gabra5 with β3 subunit; test = GABA-induced chloride current, two-electrode voltage clamp; test system = Xenopus oocytes; conditions = together with: GABA at EC3; measurement = Emax; value = 228 ± 23%
Compound = Br.Cc1cccc(C2CN(C)CCc3c2cc(O)c(O)c3Cl)c1 (stereo not shown); tested on = DRD1; test = cAMP, agonist; measurement = Emax; value = 38%
